Measurements of several laboratories.
Numbered parts are unrelated; each lists some results of a single study.
Sequence of UniProt Q9UKI8 (whole entry, looked up): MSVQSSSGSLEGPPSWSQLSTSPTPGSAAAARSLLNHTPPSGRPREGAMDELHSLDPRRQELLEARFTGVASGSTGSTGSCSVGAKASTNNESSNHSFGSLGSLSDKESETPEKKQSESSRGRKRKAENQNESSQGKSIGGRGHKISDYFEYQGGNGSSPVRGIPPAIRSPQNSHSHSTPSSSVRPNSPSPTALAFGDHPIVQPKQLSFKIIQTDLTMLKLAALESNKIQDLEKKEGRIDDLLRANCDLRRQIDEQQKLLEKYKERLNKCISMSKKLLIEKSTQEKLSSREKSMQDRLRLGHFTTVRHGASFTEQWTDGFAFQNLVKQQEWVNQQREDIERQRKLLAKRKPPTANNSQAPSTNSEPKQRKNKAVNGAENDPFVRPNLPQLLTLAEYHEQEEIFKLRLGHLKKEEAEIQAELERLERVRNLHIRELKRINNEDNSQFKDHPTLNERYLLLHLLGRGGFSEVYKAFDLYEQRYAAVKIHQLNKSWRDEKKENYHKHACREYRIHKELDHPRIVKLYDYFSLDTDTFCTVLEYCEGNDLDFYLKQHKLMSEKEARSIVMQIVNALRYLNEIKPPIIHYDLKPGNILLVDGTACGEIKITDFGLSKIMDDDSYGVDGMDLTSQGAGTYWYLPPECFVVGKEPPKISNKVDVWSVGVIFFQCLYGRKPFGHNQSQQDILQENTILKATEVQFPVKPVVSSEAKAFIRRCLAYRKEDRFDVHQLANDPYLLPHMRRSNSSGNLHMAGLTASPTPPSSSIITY
Sequence of UniProt P11309 (whole entry, looked up): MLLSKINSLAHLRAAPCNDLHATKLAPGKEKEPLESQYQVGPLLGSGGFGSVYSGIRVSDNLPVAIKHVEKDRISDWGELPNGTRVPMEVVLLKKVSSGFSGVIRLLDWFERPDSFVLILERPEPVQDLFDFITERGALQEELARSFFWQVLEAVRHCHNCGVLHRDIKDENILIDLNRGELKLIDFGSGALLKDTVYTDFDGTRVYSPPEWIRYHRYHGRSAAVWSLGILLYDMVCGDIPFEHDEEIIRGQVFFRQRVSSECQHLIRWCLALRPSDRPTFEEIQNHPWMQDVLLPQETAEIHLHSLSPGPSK
Sequence of UniProt Q8WTQ7 (whole entry, looked up): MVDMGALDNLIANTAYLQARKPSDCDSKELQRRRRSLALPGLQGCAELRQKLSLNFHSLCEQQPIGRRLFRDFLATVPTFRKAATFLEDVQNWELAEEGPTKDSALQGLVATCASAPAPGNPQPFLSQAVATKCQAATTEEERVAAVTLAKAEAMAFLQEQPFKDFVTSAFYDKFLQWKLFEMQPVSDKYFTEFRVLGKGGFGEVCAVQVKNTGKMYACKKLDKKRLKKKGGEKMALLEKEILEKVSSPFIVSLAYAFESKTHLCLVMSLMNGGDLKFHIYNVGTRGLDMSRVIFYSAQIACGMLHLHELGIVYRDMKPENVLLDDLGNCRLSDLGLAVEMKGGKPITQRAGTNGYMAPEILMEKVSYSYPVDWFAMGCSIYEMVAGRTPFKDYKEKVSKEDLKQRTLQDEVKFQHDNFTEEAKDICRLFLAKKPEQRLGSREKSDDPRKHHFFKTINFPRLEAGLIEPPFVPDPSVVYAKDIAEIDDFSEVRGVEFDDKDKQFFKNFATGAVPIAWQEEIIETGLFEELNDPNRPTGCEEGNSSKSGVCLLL
Sequence of UniProt Q9UEE5 (whole entry, looked up): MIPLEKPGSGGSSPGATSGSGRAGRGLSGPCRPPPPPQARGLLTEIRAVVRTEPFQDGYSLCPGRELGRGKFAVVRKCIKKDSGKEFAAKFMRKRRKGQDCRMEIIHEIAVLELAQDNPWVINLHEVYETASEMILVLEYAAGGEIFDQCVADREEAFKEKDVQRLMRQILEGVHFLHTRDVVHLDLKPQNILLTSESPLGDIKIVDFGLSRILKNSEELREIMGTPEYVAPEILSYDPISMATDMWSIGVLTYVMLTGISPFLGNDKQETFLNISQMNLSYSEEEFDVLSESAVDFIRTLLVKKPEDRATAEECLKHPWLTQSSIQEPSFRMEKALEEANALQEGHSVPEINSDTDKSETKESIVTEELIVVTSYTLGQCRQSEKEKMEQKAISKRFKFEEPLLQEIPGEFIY
Sequence of UniProt O75914 (whole entry, looked up): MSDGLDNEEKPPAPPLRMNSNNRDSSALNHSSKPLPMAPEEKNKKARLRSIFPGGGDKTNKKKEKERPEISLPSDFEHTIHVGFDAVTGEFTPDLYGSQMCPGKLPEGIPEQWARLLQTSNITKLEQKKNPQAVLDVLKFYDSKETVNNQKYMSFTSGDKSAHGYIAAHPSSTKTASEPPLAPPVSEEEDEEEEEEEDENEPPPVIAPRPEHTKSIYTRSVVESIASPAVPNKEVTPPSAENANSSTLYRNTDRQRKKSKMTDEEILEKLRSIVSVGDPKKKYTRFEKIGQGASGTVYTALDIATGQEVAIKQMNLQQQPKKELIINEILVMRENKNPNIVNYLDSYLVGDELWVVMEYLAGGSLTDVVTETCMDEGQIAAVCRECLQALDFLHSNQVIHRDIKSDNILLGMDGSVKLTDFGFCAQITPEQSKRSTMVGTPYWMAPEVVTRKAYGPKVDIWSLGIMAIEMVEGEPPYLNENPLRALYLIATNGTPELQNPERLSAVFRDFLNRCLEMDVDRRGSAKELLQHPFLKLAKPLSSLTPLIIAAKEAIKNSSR
Sequence of UniProt Q9H3Y6 (whole entry, looked up): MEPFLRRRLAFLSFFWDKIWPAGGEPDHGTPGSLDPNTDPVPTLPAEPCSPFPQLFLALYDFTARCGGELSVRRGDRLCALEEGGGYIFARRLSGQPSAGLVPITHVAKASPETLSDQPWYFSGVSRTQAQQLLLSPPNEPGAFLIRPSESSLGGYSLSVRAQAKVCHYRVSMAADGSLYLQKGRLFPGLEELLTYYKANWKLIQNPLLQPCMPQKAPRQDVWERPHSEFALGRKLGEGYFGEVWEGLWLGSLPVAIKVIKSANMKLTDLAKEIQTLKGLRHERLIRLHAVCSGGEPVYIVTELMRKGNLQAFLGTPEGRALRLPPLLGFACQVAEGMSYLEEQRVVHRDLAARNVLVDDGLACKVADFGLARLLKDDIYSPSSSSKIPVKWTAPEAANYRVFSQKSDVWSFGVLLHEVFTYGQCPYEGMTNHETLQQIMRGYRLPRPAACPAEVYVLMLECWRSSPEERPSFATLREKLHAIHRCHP
Sequence of UniProt P53779 (whole entry, looked up): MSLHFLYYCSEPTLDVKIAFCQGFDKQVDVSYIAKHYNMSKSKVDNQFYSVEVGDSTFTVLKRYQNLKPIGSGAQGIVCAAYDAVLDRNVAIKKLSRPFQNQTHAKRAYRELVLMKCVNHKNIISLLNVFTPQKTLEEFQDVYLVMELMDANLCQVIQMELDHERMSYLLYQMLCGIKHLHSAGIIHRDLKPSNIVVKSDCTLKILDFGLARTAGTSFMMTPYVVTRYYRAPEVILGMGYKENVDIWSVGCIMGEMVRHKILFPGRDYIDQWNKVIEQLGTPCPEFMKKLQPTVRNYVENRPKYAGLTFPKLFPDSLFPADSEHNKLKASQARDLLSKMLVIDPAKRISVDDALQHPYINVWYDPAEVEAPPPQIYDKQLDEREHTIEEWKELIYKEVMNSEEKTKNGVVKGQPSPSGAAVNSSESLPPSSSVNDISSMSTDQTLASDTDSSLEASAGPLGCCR

Block 1
Target: Protein-tyrosine kinase 6 (PTK6, Homo sapiens, UniProt Q13882)
Sequence of UniProt Q13882 (whole entry, looked up): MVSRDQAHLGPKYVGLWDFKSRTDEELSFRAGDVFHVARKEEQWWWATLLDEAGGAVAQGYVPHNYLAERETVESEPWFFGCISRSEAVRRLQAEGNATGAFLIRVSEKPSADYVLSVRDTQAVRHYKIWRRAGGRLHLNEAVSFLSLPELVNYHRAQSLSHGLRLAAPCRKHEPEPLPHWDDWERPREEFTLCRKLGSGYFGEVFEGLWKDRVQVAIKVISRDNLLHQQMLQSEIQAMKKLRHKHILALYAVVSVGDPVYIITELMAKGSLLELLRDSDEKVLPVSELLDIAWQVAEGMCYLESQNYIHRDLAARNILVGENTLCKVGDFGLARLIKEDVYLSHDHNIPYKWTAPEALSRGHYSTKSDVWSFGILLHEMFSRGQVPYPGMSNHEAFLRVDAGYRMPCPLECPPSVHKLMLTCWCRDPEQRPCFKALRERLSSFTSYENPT
Observed: enzyme activity
Mode: inhibitor
Tested at: 0.5 µM
Reference: control
Endpoint: remaining activity
Compound = O=C1Cc2c([nH]c3ccc([N+](=O)[O-])cc23)-c2ccccc2N1; result = 92.7%
Compound = Fc1ccc(-c2nc3n(c2-c2ccncc2)CCS3)cc1; result = 84.8%
Compound = Nc1nccc(-c2c(-c3ccc(F)cc3)ncn2C2CCNCC2)n1; result = 73.4%
Compound = O=C1NC(=O)C(c2c[nH]c3ccccc23)=C1c1c[nH]c2ccccc12; result = 84.6%
Compound = CC#CC(=O)Nc1cc2c(Nc3ccc(F)c(Cl)c3)ncnc2cn1; result = 56.8%
Compound = Nc1ncnc2c1cnn2-c1ccccc1; result = 92%
Compound = Cc1ccc(NC2=CC(=O)c3sc(C)nc3C2=O)cc1; result = 89.2%
Compound = Oc1ccc(Nc2nc(-c3ccc(Cl)cc3)cs2)cc1; result = 87.4%
Compound = CCc1[nH]c(-c2ccc(OC)cc2)nc1-c1ccncc1; result = 88.5%
Compound = CC(C)(C)n1nc(Cc2cccc3ccccc23)c2c(N)ncnc21; result = 19.2%
Compound = CC(=O)c1ccc(N2CCOCC2)cc1O; result = 104%
Compound = COc1ccc(S(=O)(=O)N(CCO)c2ccccc2CN(C)CC=Cc2ccc(Cl)cc2)cc1; result = 89.3%
Compound = CSc1nc(-c2ccnc(N[C@@H](C)c3ccccc3)c2)c(-c2ccc(F)cc2)[nH]1 (racemic); result = 96.8%
Compound = O=S(=O)(NCCNC/C=C/c1ccc(Br)cc1)c1cccc2cnccc12; result = 94.2%
Compound = Cc1cc(Nc2nc(-c3ccccc3)nc3ccccc23)n[nH]1; result = 61.6%
Compound = N#CC(=C(N)Sc1ccc(N)cc1)c1ccccc1C(F)(F)F; result = 97.6%
Compound = Cc1cncc2cccc(S(=O)(=O)N3CCCN(C(=O)CN)C[C@@H]3C)c12; result = 87.8%
Compound = COc1cc(Nc2c(C#N)cnc3cc(OCCCN4CCN(C)CC4)c(OC)cc23)c(Cl)cc1Cl; result = 93.1%
Compound = CC[n+]1c(/C=C/N(C)c2ccccc2)n(-c2ccccc2)c2ccc(-c3nc4ccccc4s3)cc21; result = 90.2%
Compound = CCCC(=O)Oc1ccc2[nH]c(C(=O)c3cc4ccccc4[nH]3)cc2c1; result = 85.4%
Compound = NC(=O)c1ccc(N(C(N)=O)c2c(F)cccc2F)nc1-c1ccc(F)cc1F; result = 98.7%

Block 2
Target: Beta-1 adrenergic receptor (ADRB1, Homo sapiens, UniProt P08588)
Sequence of UniProt P08588 (whole entry, looked up): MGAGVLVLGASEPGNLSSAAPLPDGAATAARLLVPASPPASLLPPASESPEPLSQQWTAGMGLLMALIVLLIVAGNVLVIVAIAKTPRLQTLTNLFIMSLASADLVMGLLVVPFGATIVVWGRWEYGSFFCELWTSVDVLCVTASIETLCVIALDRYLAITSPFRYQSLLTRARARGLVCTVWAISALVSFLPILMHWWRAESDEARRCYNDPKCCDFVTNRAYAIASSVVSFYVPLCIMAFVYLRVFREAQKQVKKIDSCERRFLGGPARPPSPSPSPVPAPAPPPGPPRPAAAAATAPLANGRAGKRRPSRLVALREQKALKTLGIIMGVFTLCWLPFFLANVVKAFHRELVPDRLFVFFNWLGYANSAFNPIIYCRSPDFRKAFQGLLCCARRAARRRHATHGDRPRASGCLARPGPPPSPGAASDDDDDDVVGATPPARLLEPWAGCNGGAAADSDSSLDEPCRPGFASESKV
Mode: antagonist
Endpoint: IC50
SMILES = CC(=O)Nc1sc2c(c1-c1cccc3ccccc13)CCNC2; result = ≥ 100 µM
SMILES = Clc1cccc(N2CCN(Cc3cnn(-c4ccccc4)c3)CC2)c1; result = ≥ 100 µM
SMILES = Cc1noc2c(-c3ccc(N4CCOCC4)cc3)cc(-c3cccs3)nc12; result = ≥ 100 µM
SMILES = COc1cc(NC(=O)CCN2CCC(OC(=O)Nc3ccccc3-c3ccccc3)CC2)c(Cl)cc1CNC[C@H](O)c1ccc(O)c2[nH]c(=O)ccc12; result = ≥ 100 µM
SMILES = c1ccc(-c2cccc(-n3ccnc3-c3cc4n(n3)CCCNC4)c2)nc1; result = ≥ 100 µM
SMILES = CC(C)c1noc(-c2ccc(N(C)CC(O)c3ccccc3)nc2)n1 (stereo not drawn); result = ≥ 100 µM
SMILES = CCOc1cccc(-c2cc(-c3nnc(S)n3CC)c3ccccc3n2)c1; result = ≥ 100 µM
SMILES = COc1ccc2c(Cn3nnc(-c4ccccc4C)n3)cc(=O)oc2c1; result = ≥ 100 µM
SMILES = OC(COc1ccc(CN2CC(N3CCOCC3)C2)cc1)CN1CCCCC1 (stereo not drawn); result = ≥ 100 µM
SMILES = Cc1cccnc1NCCNc1nc(C(C)C)nc2c1cnn2C; result = ≥ 100 µM
SMILES = COc1cccc2ccc(-c3nccn3CC3(CO)CCOCC3)nc12; result = ≥ 100 µM
SMILES = CC1=CCN(Cc2ccc(OCC(O)CN3CCN(C)CC3)cc2)CC1 (stereo not drawn); result = ≥ 100 µM
SMILES = OC(COc1ccc(CN2CC(O)C2)cc1)CN1CCCCC1 (stereo not drawn); result = ≥ 100 µM

Block 3
Species: mouse
Matrix: microsomes or S9
Tested at: 2 µM
Time: 0.5 h
Endpoint: remaining compound
SMILES = Cc1ccccc1N1CCN(C2CCc3occc3C2=O)CC1 (stereo not drawn); result = 0.0403%
SMILES = Fc1cc(F)cc(-c2cncc(COc3ccccc3)c2)c1; result = 0.0868%
SMILES = CCOc1ccc(NC(=O)Nc2ccc(-c3nnc(-c4ccccc4)o3)cc2)cc1; result = > 100%
SMILES = COc1cccc(-c2noc(Cn3cnc4c(nnn4-c4ccc(F)cc4)c3=O)n2)c1; result = 63.8%
SMILES = CC(=O)c1ccc(C(=O)NOCC(C)NC(=O)OC(C)(C)C)cc1 (stereo not drawn); result = > 100%
SMILES = Cl/C(=C/c1cccc2nccn12)c1nc2ccccc2s1; result = 0.589%
SMILES = O=C1OC2(CCCN(C(=O)Cc3cccc4ccccc34)C2)c2ccccc21 (stereo not drawn); result = 0.92%
SMILES = c1ccc(-c2nc3ccccc3nc2N2CCCC2)cc1; result = 7.92%
SMILES = CCOC(=O)C1=C(NC(=O)CSc2nnc(-c3cc(C)on3)o2)SC2CCCCC12 (stereo not drawn); result = 86.2%
SMILES = O=C(Cn1nc2c(cc1=O)CCCC2)Nc1nc(-c2ccc3c(c2)OCO3)cs1; result = 55.2%
SMILES = CCOc1ccc(C(=O)C2=CN(c3ccc(C#N)cc3)c3ccccc3S2(=O)=O)cc1; result = 33%
SMILES = Cc1noc(C)c1S(=O)(=O)N1CCC(OCc2noc(C3CCCO3)n2)CC1 (stereo not drawn); result = 2.65%
SMILES = Cc1ccc(C)c(C[S+]([O-])Cc2cc(=O)n(C)c(=O)n2C)c1 (stereo not drawn); result = 6.4%
SMILES = O=C(CCc1ccccc1Cl)NCc1[nH]ncc1Br; result = 2.4%

Block 4
SMILES: CO[C@@H](C)c1c(Nc2ccc([C@@H](N(C)C(=O)C3CCS(=O)(=O)CC3)C(F)(F)F)cc2)cnc2cc(Cl)nn12
Technique: competition with immobilised ligand
Tested at: 1 µM
Endpoint: remaining binding
target = PAK3 (Homo sapiens, UniProt O75914); observed = cell-free assay; result = 100%
target = PIM1 (Homo sapiens, UniProt P11309); observed = cell-free assay; result = 100%
target = WEE2 (Homo sapiens, UniProt P0C1S8); observed = cell-free assay; result = 100%
target = Tyrosine-protein kinase ABL1, non-phosphorylated (ABL1, Homo sapiens, UniProt P00519, Q252H); observed = cell-free assay; result = 100%
target = MARK3 (Homo sapiens, UniProt P27448); observed = cell-free assay; result = 100%
target = SRMS (Homo sapiens, UniProt Q9H3Y6); observed = cell-free assay; result = 100%
target = Tyrosine-protein kinase ABL1, phosphorylated (ABL1, Homo sapiens, UniProt P00519, F317L); observed = cell-free assay; result = 89%
target = PRKACB (Homo sapiens, UniProt P22694); observed = cell-free assay; result = 89%
target = Mast/stem cell growth factor receptor Kit, autoinhibited (KIT, Homo sapiens, UniProt P10721); observed = cell-free assay; result = 85%
target = TLK1 (Homo sapiens, UniProt Q9UKI8); observed = cell-free assay; result = 100%
target = GRK7 (Homo sapiens, UniProt Q8WTQ7); observed = cell-free assay; result = 100%
target = STK17A (Homo sapiens, UniProt Q9UEE5); observed = cell-free assay; result = 90%
target = Tyrosine-protein kinase ABL1, non-phosphorylated (ABL1, Homo sapiens, UniProt P00519, F317I); observed = binding; result = 100%
target = MAPK10 (Homo sapiens, UniProt P53779); observed = cell-free assay; result = 78%
target = INSRR (Homo sapiens, UniProt P14616); observed = cell-free assay; result = 89%

Excerpt of the above (block 2):
SMILES = COc1ccc2c(Cn3nnc(-c4ccccc4C)n3)cc(=O)oc2c1; result = ≥ 100 µM
SMILES = OC(COc1ccc(CN2CC(N3CCOCC3)C2)cc1)CN1CCCCC1 (stereo not drawn); result = ≥ 100 µM
SMILES = Cc1cccnc1NCCNc1nc(C(C)C)nc2c1cnn2C; result = ≥ 100 µM
SMILES = c1ccc(-c2cccc(-n3ccnc3-c3cc4n(n3)CCCNC4)c2)nc1; result = ≥ 100 µM
SMILES = CC(C)c1noc(-c2ccc(N(C)CC(O)c3ccccc3)nc2)n1 (stereo not drawn); result = ≥ 100 µM
SMILES = COc1cc(NC(=O)CCN2CCC(OC(=O)Nc3ccccc3-c3ccccc3)CC2)c(Cl)cc1CNC[C@H](O)c1ccc(O)c2[nH]c(=O)ccc12; result = ≥ 100 µM
SMILES = OC(COc1ccc(CN2CC(O)C2)cc1)CN1CCCCC1 (stereo not drawn); result = ≥ 100 µM
SMILES = Clc1cccc(N2CCN(Cc3cnn(-c4ccccc4)c3)CC2)c1; result = ≥ 100 µM
